Measurements of several laboratories.
A part holds a random share of what one study measured.

Sample 1
Target: RING finger protein unkempt homolog, zinc fingers 1-6, GST-SBP tag (UNK, Homo sapiens, UniProt Q9C0B0, residues 30-357)
Method: RNA Bind-n-Seq
Form: RNA
Medium: in vitro
Concentration: not given
Setting: RNA with constant flanks, human-mouse chimeric sites, ends assumed
Reference: input RNA pool
Direction: higher = stronger binding
Measurement: bound/input enrichment
Residues (chain): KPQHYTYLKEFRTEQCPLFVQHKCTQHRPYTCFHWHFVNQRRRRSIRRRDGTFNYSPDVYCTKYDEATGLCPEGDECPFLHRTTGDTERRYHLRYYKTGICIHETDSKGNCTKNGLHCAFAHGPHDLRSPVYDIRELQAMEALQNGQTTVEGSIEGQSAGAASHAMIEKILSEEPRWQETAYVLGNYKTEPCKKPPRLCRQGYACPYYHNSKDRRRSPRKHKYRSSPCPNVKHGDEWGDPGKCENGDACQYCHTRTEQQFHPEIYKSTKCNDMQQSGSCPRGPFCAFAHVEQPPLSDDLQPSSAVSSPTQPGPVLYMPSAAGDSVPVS
GGGAGUUCUACAGUCCGACGAUCCUUAAUGUUAAUAUUUUUGAAUAAAUGAAGCUAAAAUGUCUGCUUUUGGUACAACACGCAUUAGCGAAAGGUUAAGUUUUGUUUUCCACUGAAGUACUAUUUAACAUCUCAGAAAAAAACCAACAGAGGAUUGAGCAUCA: 0.941 ratio
GGGAGUUCUACAGUCCGACGAUCCUGUGACUGAUGGCAGCUACCUGAGUGGCAGCUGAAGCACUUUUCUUCUCCUUGCCUGAACCCCCCCCCACUGCCCCCCCAUCCCCCAGUGUCGGCUGAGAUGUUGCCUCUGCACGGUUCCAACAGAGGAUUGAGCAUCA: 0.962 ratio
GGGAGUUCUACAGUCCGACGAUCCGCUUGGAUGAGGCGGGUGUCACAGAUGAAGUGCUGGAUUCUGCCAUGCAAGCCUUCCUUCUGGAGGUUAUCGUUAAACAUGGGGAGCCGGCACCUUAUUUAUGUAACAAAGAUCCGUUUCAACAGAGGAUUGAGCAUCA: 0.0679 ratio
GGGAGUUCUACAGUCCGACGAUCCGCUGGCCCAAGCUGAUGGACUCUGAUGGCCUCCAUCUCUCAGGCACGUUUGCCUUCUCUUAGUCCCUGUUUUCGGGAUGUUAUGAAUCUCAGUACUGUGGUUUGAAAGCACCAGCUUUGCAACAGAGGAUUGAGCAUCA: 0.155 ratio

Sample 2
Target: Histone acetyltransferase KAT6A, winged helix 2, GST fusion (KAT6A, Homo sapiens, UniProt Q92794, residues 85-181)
Method: protein binding microarray
Form: double-stranded DNA, one strand shown
Medium: in vitro
Concentration: not given
Setting: 8-mer, flanks averaged, mean of 2 arrays, mostly near background
Reference: not given
Direction: higher = stronger binding
Measurement: E-score
Target sequence (chain): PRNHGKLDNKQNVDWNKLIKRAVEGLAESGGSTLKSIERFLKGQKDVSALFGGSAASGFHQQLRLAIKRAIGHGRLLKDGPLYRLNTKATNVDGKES
ATTATGCA: -0.0877
AAAAAGTA: 0.0819
ACTGTCTA: -0.128
CGGATGCC: 0.176
ACATCGGA: -0.0169
AAAAGGTC: -0.0765

Sample 3
Target: Sal-like protein 4, full length isoform A (SALL4, Homo sapiens, UniProt Q9UJQ4, residues 1-1053)
Chain of UniProt Q9UJQ4 (whole entry, looked up): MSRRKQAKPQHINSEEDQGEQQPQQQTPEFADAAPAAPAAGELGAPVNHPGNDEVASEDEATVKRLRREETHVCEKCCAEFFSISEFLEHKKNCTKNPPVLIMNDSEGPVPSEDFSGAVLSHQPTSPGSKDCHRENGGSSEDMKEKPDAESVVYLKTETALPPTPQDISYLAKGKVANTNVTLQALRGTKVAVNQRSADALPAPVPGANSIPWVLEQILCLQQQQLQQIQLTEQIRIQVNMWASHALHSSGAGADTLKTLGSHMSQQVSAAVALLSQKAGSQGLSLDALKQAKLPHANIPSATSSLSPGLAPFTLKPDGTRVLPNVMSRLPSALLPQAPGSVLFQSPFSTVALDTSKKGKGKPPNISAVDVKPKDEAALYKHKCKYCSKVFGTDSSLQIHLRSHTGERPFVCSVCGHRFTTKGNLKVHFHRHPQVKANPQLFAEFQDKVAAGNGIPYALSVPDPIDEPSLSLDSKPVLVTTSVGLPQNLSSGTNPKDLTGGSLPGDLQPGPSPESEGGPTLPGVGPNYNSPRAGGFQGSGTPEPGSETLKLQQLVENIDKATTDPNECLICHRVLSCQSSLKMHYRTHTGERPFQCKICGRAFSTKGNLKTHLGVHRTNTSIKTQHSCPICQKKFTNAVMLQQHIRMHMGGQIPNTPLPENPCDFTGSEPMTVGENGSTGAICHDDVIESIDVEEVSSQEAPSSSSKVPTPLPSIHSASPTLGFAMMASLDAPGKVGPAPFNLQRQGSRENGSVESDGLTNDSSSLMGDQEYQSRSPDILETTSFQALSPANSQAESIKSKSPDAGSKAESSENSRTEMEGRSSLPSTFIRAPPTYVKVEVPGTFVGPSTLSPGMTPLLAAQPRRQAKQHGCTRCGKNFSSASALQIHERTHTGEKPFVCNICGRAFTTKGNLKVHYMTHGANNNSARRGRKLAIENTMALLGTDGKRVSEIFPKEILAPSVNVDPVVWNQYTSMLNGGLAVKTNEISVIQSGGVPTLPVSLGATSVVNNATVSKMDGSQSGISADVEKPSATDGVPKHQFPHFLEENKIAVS
Method: universal PBM
Form: double-stranded DNA, one strand shown
Medium: in vitro
Concentration: 600 nM
Setting: 8-mer, flanks averaged, mean of replicates
Direction: higher = stronger binding
Measurement: E-score
TCGTGAGA: -0.114
GCAGTCCC: -0.3
ATCGGGAA: -0.183
ACTGATGG: -0.0744
GATCGGGA: -0.251
ACTTCCTA: 0.0671

Further values, each from its own experiment
PhoQ, residues 284 288 289 292 302 303 AQGLTV — fold induction (PhoP, residues 12 14 15 18 19 MHTVL (Escherichia coli, UniProt P23836); Sort-seq, refers to: YFP reporter; E. coli; PhoQ-PhoP variant library, added: 10 µM Mg2+; reference: high Mg2+ state, higher = stronger signaling): 5.39
